Published values collected from several papers.
Protocols differ between the studies behind these lines. Values joined by “and” are separate records of one study, mostly repeats; a detail may differ. ± gives the spread as reported.

O=C(Nc1cccs1)c1cccnc1  Cmax (mouse, brain; intravenous, 5 mg/kg): 2100 ng/g
CN[C@H](CC(C)C)C(=O)N[C@H]1C(=O)N[C@@H](CC(N)=O)C(=O)N[C@H]2C(=N)N[C@H]3C(=O)N[C@H](C(=O)N[C@H](C(=O)NCCCNC(=N)N)c4cc(O)cc(O)c4-c4cc3ccc4O)[C@H](O)c3ccc(c(Cl)c3)Oc3cc2cc(c3O[C@@H]2O[C@H](CO)[C@@H](O)[C@H](O)[C@H]2O[C@H]2C[C@](C)(NCc3ccc(-c4ccc(Cl)cc4)cc3)[C@H](O)[C@H](C)O2)Oc2ccc(cc2Cl)[C@H]1O  Cmax (mouse; intravenous, 25 mg/kg): 139000 ng/mL
O=C(c1cc(Cc2n[nH]c(=O)c3ccccc23)ccc1F)N1CC(CNC2CC2)C1  Cmax (female ICR mouse, plasma; oral, 60 mg/kg): 4100 ng/mL
Cc1cc(Nc2nc(C[C@@]3(C(=O)O)CCN(Cc4cccc(Cl)c4F)[C@H](C)C3)cc(C)c2F)n[nH]1  Cmax (mouse, IMR-32 xenograft, plasma; oral, 10 mg/kg once daily): 14500 ng/mL
CCOc1ccccc1-n1c(CN2CCNCC2)nc2ccccc2c1=O  Cmax (C57BL/6 mouse, male, plasma; intravenous, 1 mg/kg): 3.79 µM
CC[C@H](C)[C@H](NC(=O)[C@H](CCCN)NC(=O)[C@H](CCCNC(=N)N)NC(=O)[C@@H]1CCCN1C(=O)[C@@H]1CCCN1C(=O)[C@H](CCCNC(=N)N)NC(=O)[C@@H]1CCCN1C(=O)[C@H](CCCNC(=N)N)NC(=O)[C@@H]1CCCN1C(=O)[C@H](CC(C)C)NC(=O)[C@H](Cc1ccc(O)cc1)NC(=O)[C@@H]1CCCN1C(=O)[C@@H]1CCCN1C(=O)[C@H](CCCCN)NC(=O)[C@H](CC(=O)O)NC(=O)[C@@H](N)C(C)C)C(=O)N[C@@H](Cc1ccc(O)cc1)C(=O)N[C@@H](CC(N)=O)C(=O)N[C@@H](CCCN)C(N)=O  Cmax (LC-MS; mouse CD-1, female, plasma; subcutaneous, 4.34 µmol/kg): 8700 ± 190 ng/mL
Cc1sc2c(c1C)C(c1ccc(Cl)cc1)=N[C@@H](CC(=O)OC(C)(C)C)c1nnc(C)n1-2  Cmax (CD1 mouse, male; oral, 10 mg/kg): 1180 ng/mL
C/C(=N\OCCCN1CCCCC1)c1ccc(C(F)(F)F)cc1  Cmax (mouse, plasma; oral, 100 mg/kg twice daily, day 1): 1670 ± 300 ng/mL
O=C(CN1C(=O)C2(CCN(C(=O)c3ccc4[nH]ncc4n3)CC2)c2c(Br)cccc21)NCC(F)(F)F  Cmax (C57BL/6 mouse, male, plasma; oral, 10 mg/kg): 38.5 ng/mL
O=C(c1cncc2cc[nH]c12)N1CCC(=C2c3ccccc3CS(=O)(=O)c3ccccc32)CC1  Cmax (mouse; oral, 50 mg/kg): 6070 ng/mL and 6060 ng/mL

Excerpt of the above:
CN[C@H](CC(C)C)C(=O)N[C@H]1C(=O)N[C@@H](CC(N)=O)C(=O)N[C@H]2C(=N)N[C@H]3C(=O)N[C@H](C(=O)N[C@H](C(=O)NCCCNC(=N)N)c4cc(O)cc(O)c4-c4cc3ccc4O)[C@H](O)c3ccc(c(Cl)c3)Oc3cc2cc(c3O[C@@H]2O[C@H](CO)[C@@H](O)[C@H](O)[C@H]2O[C@H]2C[C@](C)(NCc3ccc(-c4ccc(Cl)cc4)cc3)[C@H](O)[C@H](C)O2)Oc2ccc(cc2Cl)[C@H]1O  Cmax (mouse; intravenous, 25 mg/kg): 139000 ng/mL
